# Results gathered from unrelated publications.
# Each line is one published result; not all experiments were run side by side. ± marks the error that the study gave.
# Target: Carbonic anhydrase 9 (CA9, Homo sapiens, UniProt Q16790)
SMILES,observed,mode,technique,pH,quantity,value
COC(=O)CCCNC(=O)c1cc(S(N)(=O)=O)c(Cl)cc1NC1CCCCC1,,,,pH 7,Kd,18 nM
Cc1c(Cl)c(=O)oc2cc(OCCCCCCSC#N)ccc12,enzyme activity,inhibitor,stopped-flow,,Ki,65.4 nM
NS(=O)(=O)c1ccc(C(=O)N2CCN(c3cccc4[nH]ccc34)CC2)cc1Br,enzyme activity,inhibitor,,,IC50,28.2 nM
CCCCC1CCC(=O)O1 (stereo not drawn),enzyme activity,inhibitor,stopped-flow,,Ki,6700 nM
Cc1nn(-c2ccc(S(N)(=O)=O)cc2)c(C)c1CCC(=O)Nc1cccc(-c2cn(C)nn2)c1,,inhibitor,,,IC50,27 ± 4 nM
CC[C@H](C)[C@H](N)C(=O)NS(=O)(=O)CC(=O)N[C@@]1(C(=O)O)[C@@H](OC(=O)[C@@H](N)[C@@H](C)c2ccccc2)C[C@H]2C(C(N)=O)=CN(C)C[C@H]21,enzyme activity,inhibitor,absorbance,pH 7.5,IC50,99 nM
Cc1cc(=O)oc2cc(OCCCCCCSC#N)ccc12,enzyme activity,inhibitor,stopped-flow,,Ki,17.9 nM
CCCCCCCCCCCC(=O)NC1CCOC1=O (stereo not drawn),enzyme activity,inhibitor,stopped-flow,,Ki,10100 nM
NS(=O)(=O)c1ccc(NC(=O)c2cc3sccc3n2Cc2ccc(Cl)cc2)cc1,enzyme activity,inhibitor,,,IC50,18.2 nM
O=C1CCc2c(ccc3ccccc23)O1,enzyme activity,inhibitor,stopped-flow,,Ki,3000 nM
Cc1cc(C(=O)CN2CCN(C(=O)c3cccc(F)c3)CC2)c(C)n1-c1ccc(S(N)(=O)=O)cc1,enzyme activity,inhibitor,,,IC50,24 nM
C[C@@]1(C(=O)O)[C@@H](O)CC[C@]2(C)c3cc4c(cc3CC[C@@H]12)[nH]c1ccc(S(=O)(=O)n2c3ccccc3c3cc5c(cc32)CC[C@H]2[C@](C)(C(=O)O)[C@@H](O)CC[C@]52C)cc14,enzyme activity,inhibitor,absorbance,pH 7.5,IC50,114 nM
